Assay results collected from several papers.
Every numbered part comes from another study and shows a few of its results, in no order.

Series 1
Target: Ras GTPase-activating protein-binding protein 1, full length (G3BP1, Homo sapiens, UniProt Q13283)
Sequence of UniProt Q13283 (whole entry, looked up): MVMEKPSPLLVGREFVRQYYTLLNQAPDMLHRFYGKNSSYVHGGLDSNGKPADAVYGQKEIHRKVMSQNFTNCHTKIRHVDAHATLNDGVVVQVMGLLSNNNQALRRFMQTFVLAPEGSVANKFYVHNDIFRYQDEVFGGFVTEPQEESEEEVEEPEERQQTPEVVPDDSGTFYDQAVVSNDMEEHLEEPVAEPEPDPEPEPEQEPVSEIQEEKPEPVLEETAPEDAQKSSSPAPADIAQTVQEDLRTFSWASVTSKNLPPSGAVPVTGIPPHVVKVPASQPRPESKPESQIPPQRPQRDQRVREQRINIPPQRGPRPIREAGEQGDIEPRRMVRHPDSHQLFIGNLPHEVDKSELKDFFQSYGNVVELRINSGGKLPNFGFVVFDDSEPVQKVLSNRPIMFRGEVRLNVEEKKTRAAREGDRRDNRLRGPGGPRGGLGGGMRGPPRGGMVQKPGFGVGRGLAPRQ
Technique: RNA Bind-n-Seq
Molecule type: RNA
Sample: in vitro
Tested at: 200 nM
Notes: whole 134-nt RNA, ends assumed
Together with: 150 mM KCl
Relative to: input library
Reading: higher = stronger binding
Measurement: log2 enrichment
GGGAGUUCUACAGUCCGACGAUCUCAAGUCCUGUGCUACACAUCGUAUGUACCGAAUCGGUGGUUUGGAAAAAAAGGAAAGUAUUAUGUUACGCCGUUCGGAUCUGCACUUCCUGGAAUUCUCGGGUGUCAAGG: -0.789
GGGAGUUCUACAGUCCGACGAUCCCUCACCACUCCUUUCUCUUUCAUUCAGUUCCGCUCAGUGGACGAGACUACCCAGGCUAUGGCCUUUGAUGGCAUCAUCUUCCAGGGCCAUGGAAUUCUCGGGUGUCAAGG: 0.243
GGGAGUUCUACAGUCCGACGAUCGCAGGAAGUAAAAACAAAUGGAAAGGCUUCGGAUAGUGGCAGGGGUGGGGGUUGCUAAGGAAAGGGUGGGAUGGGAGUGGGUAAAGAGUUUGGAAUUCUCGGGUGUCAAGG: 0.537
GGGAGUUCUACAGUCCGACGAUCAAGUCCUGUGCUACACAUCGUAUGUACCGAAUCGGGAAAAGGAAAAGGAAAAGGGGAAAGUAUUAUGUUACGCCGUUCGGAUCUGCACUUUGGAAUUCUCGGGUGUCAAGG: -0.746
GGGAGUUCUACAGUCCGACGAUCUUGAGAUUGGGUGGAUUCCUAUCAUCUGGAAUUCUGACUCCUCGGGUCUCCUUCUCUAGGUAGCCCAGCAGCAGUGAAGAUGCAGACUGAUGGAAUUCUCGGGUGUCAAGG: -1.35
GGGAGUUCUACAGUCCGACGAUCCUGUGCUACACAUCGUAUGUACCGAAUCGGGGUUUUUUUGGUUUUUUUGGUUUUUUUGGGGAAAGUAUUAUGUUACGCCGUUCGGAUCUGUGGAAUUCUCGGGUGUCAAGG: -1.01
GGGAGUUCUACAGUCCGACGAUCCUGUGCUACACAUCGUAUGUACCGAAUCGGGGUUUUUUUGGGGUUUUUUUGGGGAAAGGGGAAAGUAUUAUGUUACGCCGUUCGGAUCUGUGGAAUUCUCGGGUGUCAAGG: -0.168
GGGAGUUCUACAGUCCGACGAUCCACAGACAACACGCACCCACACAGACACAGAGGGACGGGGUUGGGAUGGGGACAGGGUGCACAGCAGGGCGGGGUAGGACCCCAGCCCCUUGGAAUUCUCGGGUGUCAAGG: 1.98
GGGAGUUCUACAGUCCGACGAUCGUCCUGUGCUACACAUCGUAUGUACCGAAUCAAACCCCCAAACCCCCCCAAACCCAAAAAAGUAUUAUGUUACGCCGUUCGGAUCUGCACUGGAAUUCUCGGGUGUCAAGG: -0.313
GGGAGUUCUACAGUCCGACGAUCUCCUGUGCUACACAUCGUAUGUACCGAAUCGGGGUGGGGAAAAAAAGGGGUUUUUGGGGAAAGUAUUAUGUUACGCCGUUCGGAUCUGCAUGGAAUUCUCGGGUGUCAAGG: 0.76

Series 2
Target: Sal-like protein 4, full length isoform A (SALL4, Homo sapiens, UniProt Q9UJQ4, residues 1-1053)
Sequence of UniProt Q9UJQ4 (whole entry, looked up): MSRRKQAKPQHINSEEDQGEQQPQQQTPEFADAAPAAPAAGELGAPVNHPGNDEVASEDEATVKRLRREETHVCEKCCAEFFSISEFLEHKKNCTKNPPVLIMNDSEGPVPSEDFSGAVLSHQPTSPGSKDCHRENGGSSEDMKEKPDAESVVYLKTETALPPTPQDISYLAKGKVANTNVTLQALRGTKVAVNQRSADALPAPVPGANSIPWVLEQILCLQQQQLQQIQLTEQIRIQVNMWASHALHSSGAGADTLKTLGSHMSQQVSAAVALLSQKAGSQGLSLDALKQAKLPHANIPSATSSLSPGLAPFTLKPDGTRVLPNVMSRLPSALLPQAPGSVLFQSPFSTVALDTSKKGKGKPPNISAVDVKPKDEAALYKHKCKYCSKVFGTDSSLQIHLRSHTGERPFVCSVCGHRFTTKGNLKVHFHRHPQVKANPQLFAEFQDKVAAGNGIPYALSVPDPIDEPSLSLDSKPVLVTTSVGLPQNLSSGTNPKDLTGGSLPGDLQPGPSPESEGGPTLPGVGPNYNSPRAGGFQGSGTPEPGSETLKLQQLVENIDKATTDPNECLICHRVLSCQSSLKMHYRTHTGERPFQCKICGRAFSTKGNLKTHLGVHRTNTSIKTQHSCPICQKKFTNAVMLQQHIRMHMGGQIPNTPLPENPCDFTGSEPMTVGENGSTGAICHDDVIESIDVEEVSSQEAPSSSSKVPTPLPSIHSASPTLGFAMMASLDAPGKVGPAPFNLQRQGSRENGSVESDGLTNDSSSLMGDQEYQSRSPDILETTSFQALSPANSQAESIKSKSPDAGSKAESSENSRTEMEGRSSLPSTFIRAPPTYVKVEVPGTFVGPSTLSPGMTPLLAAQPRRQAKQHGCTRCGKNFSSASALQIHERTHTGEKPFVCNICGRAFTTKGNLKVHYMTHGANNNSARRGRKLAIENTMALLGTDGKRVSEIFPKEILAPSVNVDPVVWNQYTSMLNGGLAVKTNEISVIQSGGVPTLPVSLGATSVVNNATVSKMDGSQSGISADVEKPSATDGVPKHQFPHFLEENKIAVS
Technique: universal PBM
Molecule type: double-stranded DNA, one strand shown
Sample: in vitro
Tested at: 600 nM
Notes: 8-mer, flanks averaged, mean of replicates
Reading: higher = stronger binding
Measurement: E-score
ATATTCGC: 0.34
ACTGTACT: -0.0117
ACGTGTCT: 0.0971
ATTAGCAA: 0.295
CTAGAGAC: -0.167
ACACCGTA: -0.0954
ACCTGCGG: -0.334
AACGCCTC: -0.213
GATGGCGA: 0.0504
AAGCGCAG: -0.166
GGAACGAA: 0.0768
ACCTGACA: -0.0641
AGCCGAAT: -0.0488
ACTACAAA: 0.168
CTAATCTC: 0.128
CCTCTTGC: -0.253
ATCCCCAA: -0.0206
CGCTAGGC: -0.256
AGCACTAC: -0.0102
CGTATGGC: 0.0907
AGACCGAG: -0.213
CAGGGCTC: -0.299
AACGGATT: 0.221
GGACATAA: 0.198
CCGTCAGG: -0.253

Series 3
Target: RNA binding protein fox-1 homolog 2, RRM domain, GST-SBP tag (RBFOX2, Homo sapiens, UniProt O43251-10, residues 100-194)
Technique: RNA Bind-n-Seq
Molecule type: RNA
Sample: in vitro
Tested at: 365 nM
Notes: natural RNA segment, single round, ends assumed
Relative to: no-protein control
Reading: higher = stronger binding
Measurement: RBNS enrichment (R)
Target sequence (chain): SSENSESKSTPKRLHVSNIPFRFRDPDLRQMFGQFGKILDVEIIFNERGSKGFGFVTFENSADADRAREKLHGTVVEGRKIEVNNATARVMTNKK
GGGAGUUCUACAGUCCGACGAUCAAAACACCUGUUGACCUGAGAGAAGUAAAUUCCAGAAGGGAACCAAGAACUCUUCCCUUCCCUGGUGAGUAUUUCCAUUAUUCCGUUAAGGUUUAAUAUGCAUUCAGAUUUGGAAUUCUCGGGUGCCAA: 0.562
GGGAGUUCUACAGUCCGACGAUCAGCAAAACAAAAACAAAAACAAAAACCCUACCAGAAACCAGAAGUAGAGAGAUUUACCAUAUAACUUAUGGACUUUGAAAUGUCUGUCCUUUUAAGGCAGCAGGGAGGCCUGGAAUUCUCGGGUGCCAA: 0.613
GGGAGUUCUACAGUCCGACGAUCACCUGGGGAGGCCAGGUCACUGCACUGGGAGGUCCUGGCUGCUGCGAAGCUGGAGGAGGACUGCGUGGGCUGAGAUGCCACCCUUUGAAGGGUGAACAGCAUGGCGGCAUUGGAAUUCUCGGGUGCCAA: 1.84
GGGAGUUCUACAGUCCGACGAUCGUGGGUGGGUGAAUGGCAGGCUUCUGUAGGAACUUGUGUAAUUAUGCCAUUUUUAUAUUCCUAAUAAAUGGCAAAGAGACAAGAAUAGGACCUUGGAUGGAAAUUCCCUGUGGAAUUCUCGGGUGCCAA: 1.1
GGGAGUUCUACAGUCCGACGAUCGGAUCCUGUAGGCCCUGGGAGGGGGUCCCCUUUGUGAAAUAUCAAUGCUGUUUGGGGCCCUCCCCCCAAGACUUCUCUCACUUGUUGAGUCUGUGUGCUCUCGCAAUGUUUGGAAUUCUCGGGUGCCAA: 0.278
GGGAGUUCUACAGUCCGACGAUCAGCUGGGGGUUGGGGGGACUGACCCUCCCCAGGGAGGUCUUACAAGUAGUGUGACCAGUCUUUUGUUUGUUUGUUUGGUUGGUUGUUUUUUGGAGACAGGGUUUCUCUGUUGGAAUUCUCGGGUGCCAA: 12.8
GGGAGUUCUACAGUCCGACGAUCAGGGACAGGUGGGAGAAUGGGUGUAGGAGGCAGGCCCCAGGCUCUGCUUCUUGGUGACAGUUGGCCAGAGCCCUGUAUGCUUUGAUUUUUUUGUACUUAAAAAGAAAAAAUGGAAUUCUCGGGUGCCAA: 0.988
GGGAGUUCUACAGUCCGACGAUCAAAGCCUGAAAGCCAUUGGUGAUCCAGGGGCACCUUCUCUUCAGCUUGACUGGGCGUCUUCCGCUGCAUAACACUCAAGGUGUCUGCUCUAGUCAUCCAGAAACCCACUCUGGAAUUCUCGGGUGCCAA: 0.377
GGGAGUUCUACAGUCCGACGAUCUAUUAUACAUGUAUAUGCUGGGUCCUUUUUCAGAAACUCUUUUCUUACCUGAGAGUUGUCUUGUUUUCUGGGCUGUUUUUAACUGAGGAAAAAAAAAAUGCUUUCCUGCCUGGAAUUCUCGGGUGCCAA: 2.32

Series 4
Target: Histone acetyltransferase KAT6A, winged helix 1, GST fusion (KAT6A, Homo sapiens, UniProt Q92794, residues 1-85)
Technique: protein binding microarray
Molecule type: double-stranded DNA, one strand shown
Sample: in vitro
Tested at: not given
Notes: 8-mer, flanks averaged, mean of 2 arrays, mostly near background
Relative to: not given
Reading: higher = stronger binding
Measurement: E-score
Residues (chain): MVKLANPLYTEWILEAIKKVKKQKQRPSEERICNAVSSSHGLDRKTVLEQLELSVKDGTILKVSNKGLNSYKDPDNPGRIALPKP
ATACGTAG: -0.0224
GTAGGTTA: -0.0123
CAACCCGC: 0.372
TACGAGGA: -0.00863
ACTACCCA: -0.203
ACCTGCAT: -0.141
ACCAAGTG: -0.168
AGGCCCTC: -0.0179
AAAACGTC: -0.116
AAGCCTGC: -0.0204
CCAGATAG: -0.32
AAAAGTCG: -0.0981
CCGCATCC: 0.26
CGTACCAA: -0.0258
GTCACATA: -0.0201
GTCGTAGA: -0.146
CACTGGTC: -0.108
CGACACAG: 0.0447
AAATTTCC: -0.143
CCCTGGCG: 0.123
CCTATTGC: 0.0122
GGACTGGA: -0.215
ACCGCGAA: 0.321
GCATCTCA: -0.0649
GCCAGGGA: -0.184
